# Measurements collected from several papers.
# Protocols differ between the studies behind these lines. “And” joins repeats or separate records; there may be more than shown. ± gives the spread as reported.
SMILES,assay,system,setting,how to read,quantity,value
COc1ccc2[nH]c([S+]([O-])Cc3ncc(C)c(OC)c3C)nc2c1 (centres unmarked),,"healthy Chinese volunteers, plasma","oral, 20 mg, fasted, CYP2C19 poor metabolizers",,AUC(0-inf),4280 ± 1440 ng·h/mL
COc1ccc([C@@H](O)c2cc(-c3ncnc4cc(N5CCOCC5)ccc34)c(F)cc2Cl)nn1,geometric mean,"healthy volunteers, urine","oral, 100 mg, all treatments overall",,renal clearance,2.05 mL/min
CNC(=O)c1ccc(-c2cnc3ncc(Cc4ccc5ncccc5c4)n3n2)cc1F,,healthy human subjects,"oral, 400 mg, Fatigue, grade 3, all causality, with: rifampicin 600 mg/day",,subjects with adverse event,0%
O=C(Nc1cnccc1Cl)N1CCN(Cc2ccc3c(c2)OC(F)(F)O3)CC1,,"healthy young men, urine","oral, 75 mg once daily, day 10",,renal clearance,0.135 mL/min
C[C@@H](Oc1ccc(S(C)(=O)=O)cc1C(=O)N1C[C@@H]2C[C@]2(c2cc(C(F)(F)F)on2)C1)C(F)(F)F,,"young humans, plasma","oral, 75 mg once daily, multiple dose, geometric mean",,Vz/F at steady state,489 L
COc1cccc(OC)c1-c1cc(C(=O)NC2(C(=O)O)C3CC4CC(C3)CC2C4)nn1-c1ccc(C(=O)N(C)CCCN(C)CCCN(C)C(=O)CN2CCN(CC(=O)[O-])CCN(CC(=O)[O-])CCN(CC(=O)[O-])CC2)cc1C(C)C.[177Lu+3] (centres unmarked),,"mouse, HT-29 xenograft, heart",24 h post injection,,tissue uptake,0.133 %ID/g
OC[C@H]1O[C@@H](c2ccc(Cl)c(Cc3ccc(O[C@H]4CCOC4)cc3)c2)[C@H](O)[C@@H](O)[C@@H]1O,,"Japanese type 1 diabetes patients, blood","2.5 mg, day 28",relative to: baseline,change in Triglycerides,-5.62 mg/dL
CN(C)C(=N)N=C(N)N,measured: gastrointestinal disorders,healthy men,"oral, dose not given, 8 days, treatment-emergent, crossover trial",,subjects with adverse event,9.1%
C#Cc1cccc(Nc2ncnc3cc(OCCOC)c(OCCOC)cc23)c1,,"human, plasma","oral, 100 mg, day 1",,V/F,174 ± 79 L
CN1C(=O)[C@@H](NC(=O)c2nnc(Cc3ccccc3)[nH]2)COc2cccnc21,,"human, both sexes","oral, 600 mg",,t½,6 to 9 h
CCc1cc(C(=O)NC)c2nccc(N3CCc4c(cc(Cn5ccnc5)cc4-c4cn(C)nc4C(F)(F)F)C3=O)c2c1,,Sprague Dawley rat,"oral, 100 mg/kg once daily, 7 days",relative to: vehicle,heart weight change,-2.44%
O=C1CCc2ccc(OCCCCN3CCN(c4cccc(Cl)c4Cl)CC3)cc2N1,measured: Constipation,"patients, CYP2D6 normal metabolizers","dose not given, long-acting oral or depot",,adverse event incidence,0.9%
CO[C@@H]1[C@H](OC(=O)N2CC(CCN3CCOCC3)C2)CC[C@]2(CO2)[C@H]1[C@@]1(C)O[C@@H]1CC=C(C)C,,human,"dose not given, day 28, multiple ascending dose",relative to: baseline,heart rate change,-0.2 ± 6.9 bpm
C=CCN1CC(=O)N2[C@@H](Cc3ccc(O)cc3F)C(=O)N(Cc3cccc(N4CC(N5CCN(CC)CC5)C4)n3)C[C@@H]2N1C(=O)NCc1ccccc1,,advanced solid tumour patients,"oral, 45 mg twice daily, grade ≥3, dose-escalation",,treatment-related vomiting,0%
O=C(N[C@H](Cc1c[nH]c2ccccc12)C(=O)Nc1ccncc1)c1ccc(-c2cc(C(F)(F)F)ccc2F)cc1F,,"Swiss Webster mouse, female, muscle","oral, 50 mg/kg, 8 h, 20% Kolliphor vehicle",,concentration,9410 nM
Cc1c(C(=O)O)ccc2c3n(nc12)[C@@H]1[C@H](C3)N(CC2CC2)[C@@]2(C(=O)Nc3cc(Cl)ccc32)[C@H]1c1cccc(Cl)c1F,,"female BALB/c nude mice, plasma","oral, 1 mg/kg twice daily, 31 h, SJSA-1 tumour-bearing",,plasma concentration,145 nM and 296 nM and 482 nM and 157 nM and 338 nM
COC(=O)/N=S(\c1ccc(C(F)(F)F)cc1)C1CC1 (centres unmarked),,human liver microsomes,,relative to: hepatic blood flow,metabolic stability,< 23%
CC(C)C[C@H](NC(=O)CNC(=O)c1cc(Cl)ccc1Cl)B(O)O,measured: Arthralgia,human newly diagnosed multiple myeloma,"oral, dose not given, maintenance, grade 3, onset cycle 17 or later",,treatment-emergent adverse events,6%
Cc1ccc([C@@H]2O[C@H](CO)[C@@H](O)[C@H](O)[C@H]2O)cc1Cc1ccc(-c2ccc(F)cc2)s1,,Japanese type 2 diabetes patients,"200 mg, day 18, 24 h urine collection",relative to: baseline,urinary chloride excretion change,-22.1 mEq
COc1ccc2c(c1)c(CC(=O)O)c(C)n2C(=O)c1ccc(Cl)cc1,,"rat, stomach","concentration not given, 4 h",,ulcer number,8
COc1ccnc(C(=O)NCC(=O)O)c1O,aerobic dark soil incubation,silt loam soil,"20 °C, persistence endpoint",,DT50,5.62 days
O=C(Nc1c2c(cc3c1CCC3)CCC2)NS(=O)(=O)/C=C/c1nccs1,,human liver microsomes,1 µM,,metabolic rate,0.019 nmol/min/mg protein
O=C(Nc1nc2cccc(-c3ccc(CN4CCS(=O)(=O)CC4)cc3)n2n1)C1CC1,population PK model,human,oral,,slower absorption mixture fraction,0.818
Nc1ncnc2c1ncn2[C@H]1C[C@@H]2OP(=O)(O)OC[C@H]3O[C@@H](n4cnc5c(N)ncnc54)C[C@@H]3OP(=O)(O)OC[C@H]2O1,,"non-tumor-bearing mice, serum","intravenous, 1 mg/kg, toxicity study",,total protein,51.7 ± 4.66 g/L
N#C[C@@]1(c2ccc3c(N)ncnn23)O[C@H](CO)[C@@H](O)[C@H]1O,plasma protein binding,rat plasma,"1 µM, time not given",,recovery,96.7%
CC(C)(C(=O)N1CCOc2c(C#N)cncc2C1)C(F)F,measured: nervous system disorders,"healthy humans, both sexes","oral, 40 mg single dose",,subjects with TEAE,16.7%
Nc1ncnc2c1c(Oc1cc(C(F)(F)F)ccn1)nn2[C@@H]1CCCC[C@H]1O,,"rabbit, liver microsomes",,,metabolic stability,stable
Cc1ccc(Sc2ccccc2N2CCNCC2)c(C)c1,measured: blood uric acid increased,healthy adult women,"oral, 5 mg daily, 12 days",,participants with TEAE,0%
C[C@@H]1OC(=O)[C@H](Cc2ccccc2)[C@H]1O,,"Swiss Lake sand sediment, aerobic dark",20 °C,,DT50 water,34.8 days
CCCCCCCOc1ccc(CCC(N)(CO)CO)cc1C(F)(F)F.Cl,,healthy men,"oral, 0.5 mg, day 21",,renal clearance,0.143 mL/min
OCc1nc2ccc(NCc3ccc(C(F)(F)F)cc3)cc2[nH]1,,"Balb/c mouse, male, lungs","intravenous, 1 mg/kg, 6 h",relative to: tissue over plasma,tissue/plasma ratio,2.6 ± 0.3
Cc1cc(C)c(CNC(=O)c2cc(Cl)c3c(c2C)O[C@@](C)([C@H]2CC[C@H](N(C)C)CC2)O3)c(=O)[nH]1,LC-MS/MS,human male,"oral, dose not given, with: fluconazole",relative to: with fluconazole over alone,AUClast fold increase,~1.6 fold
Cc1nc(-c2cnc(NC(C)C)n(C)c2=O)ccc1Oc1ccnc(-c2cnn(C)c2)c1,,"DBA/1 mouse, female, plasma","oral, 7.5 mg/kg, single dose",,apparent volume of distribution,1.88 L/kg
FC(F)(F)c1ccc(CNc2ccc(Cc3c[nH]c4ncc(Cl)cc34)cn2)cn1,measured: Anemia,"patients with advanced solid tumours, non-TGCT cohort","oral, 1000 mg/day, grade 3 or higher",,treatment-related adverse events,0%
CC[C@H](C)CCCCC(=O)N[C@@H](CCN)C(=O)N[C@H](C(=O)N[C@@H](CCN)C(=O)N[C@H]1CCNC(=O)[C@H]([C@@H](C)O)NC(=O)[C@H](CCN)NC(=O)[C@H](CCN)NC(=O)[C@H](CC(C)C)NC(=O)[C@@H](Cc2ccccc2)NC(=O)[C@H](CCN)NC1=O)[C@@H](C)O,measured: nervous system disorders,mild renal insufficiency patients,"IV, 0.75 mg/kg",,adverse event incidence,71.4%
N#Cc1ccc2c(c1)[C@H]1CCCN(C(=O)c3ccc4[nH]cnc4c3)[C@H]1C2,,human females,"240 mg, end of trial",,SHBG level,41.5 nmol/L
CCn1cc(C(=O)N2CCOCC2)c(=O)c2cc(NC3Cc4ccccc4C3)cnc21,,"human, plasma","oral, 900 mg BID, day 7, fed, tablet, overall",,CL/F,18.6 L/h
CNCc1ccc(-c2[nH]c3cc(F)cc4c3c2CCNC4=O)cc1,,human patients,"oral, 600 mg twice daily, grade 1",,malignant neoplasm progression incidence,0%
Cc1cc(C)c(CNC(=O)c2cc(Cl)c3c(c2C)O[C@@](C)([C@H]2CC[C@H](N(C)C)CC2)O3)c(=O)[nH]1,,relapsed/refractory NHL patients,"oral, 200 mg once daily, onset after cycle 1 day 1",,grade ≥3 adverse event Sepsis,4.2%
CCN1/C(=C/C(C)=O)Sc2ccc(F)cc21,,cynomolgus monkey,"oral, 30 mg/kg, 24 h post-dose",,PR interval,90 ± 4 ms
COc1cc2nccc(Oc3ccc(NC(=O)c4cc5c(n(-c6ccccc6)c4=O)CCCC5=O)nc3)c2cc1OC,,relapsed or refractory AML,"oral, 6 mg once daily",,grade ≥3 Fatigue patients,0%
O=C1CC[C@H](N2Cc3cc(N4CCN(CC5CCN(c6ccc([C@@H]7c8ccc(O)cc8CC[C@@H]7c7ccccc7)cc6)CC5)CC4)ccc3C2=O)C(=O)N1,,"female Sprague-Dawley rat, plasma","oral, 20 mg/kg",relative to: fasted state,bioavailability increase fed vs fasted,1.67 fold
CO[C@H]1C[C@@H]2CC[C@@H](C)[C@@](O)(O2)C(=O)C(=O)N2CCCC[C@H]2C(=O)O[C@H]([C@H](C)C[C@@H]2CC[C@@H](OC(=O)NCCOCCOCCOCCOCCOCCOCCOCCOCCC(=O)N3CCc4cc(Cn5nc(-c6ccc7oc(N)nc7c6)c6c(N)ncnc65)ccc4C3)[C@H](OC)C2)C[C@@H](O)[C@H](C)/C=C(\C)[C@@H](O)[C@@H](OC)C(=O)[C@H](C)C[C@H](C)/C=C/C=C/C=C/1C,,"human, plasma","intravenous, 3 mg, cycle 1 day 15, arithmetic mean",,Tmax,0.75 h
OCc1cc(C(O)CNCCCCCCOCCCCc2ccccc2)ccc1O (centres unmarked),equilibrium dialysis,"rat, plasma",,,fraction unbound,0.075
Cc1cccc(CNC(=O)c2cn(CCNC(=O)c3ccccc3S)c3cc4c(cc3c2=O)OC(F)(F)O4)n1,,"Sprague-Dawley rat, male, whole blood","intramuscular, 3 mg/kg of parent drug",,bioavailability,76%
C=CCn1c(=O)c2cnc(Nc3ccc(N4CCN(C)CC4)cc3)nc2n1-c1ccc2c(n1)[C@@](O)(CC)CC2,,"female NOD/SCID mouse OVCAR-3 xenograft, plasma","oral, 90 mg/kg once daily, :2",,Cmax,6380 ng/mL
CN1CCN(C(=O)[C@H](CCCN[C@@H]2C[C@H]2c2ccc(F)cc2)NC(=O)c2ccc(-n3ccnn3)cc2)CC1,,"NOD/SCID mouse MV4-11 xenograft, subcutaneous tumour","oral, 7.5 mg/kg/day, 24 h",,tumour concentration,1200 ± 450 nM
